Assay results from different studies.
Protocols differ between the studies behind these lines. Numbers after ± are the reported error. Values after ≈ are worked out from the molar mass of the structure shown.

| SMILES | organism | test | system | setting | how to read | measurement | result |
| --- | --- | --- | --- | --- | --- | --- | --- |
| Cc1ccccc1C(=O)NN=Cc1ccc(O)c(Br)c1 | Cryptococcus neoformans | – | – | concentration not given, with: amphotericin B | – | MIC in combination | 0.25 µg/mL |
| C[C@@H](O)[C@H]1C(=O)N2C(C(=O)O)=C(S[C@@H]3CN[C@H](C(=O)N(C)C)C3)[C@H](C)[C@H]12 | Klebsiella pneumoniae | – | NDM-producing, neutropenic BALB/c mouse, thigh infection, thigh | dose not given, 2 h | – | bacterial burden, mean | 6.8 log10 CFU/thigh |
| C[C@@H](O)[C@@H]1NC(=O)[C@H](Cc2ccccc2)NC(=O)[C@@H](Cc2ccccc2)NC(=O)[C@H]([C@@H](C)O)NC(=O)[C@@H](CCCN)NC(=O)[C@H](CCCN)NC(=O)[C@@H](CCCCN)NC1=O | Naegleria fowleri | – | – | trophozoites | – | IC90 | > 16 µg/mL |
| Cc1ccc2c(c1)CC[C@@](CCN(C)CCCc1nc3ccccc3[nH]1)(OC(=O)C1CC1)[C@H]2C(C)C | Plasmodium falciparum | – | 7G8 | – | – | IC50 | 2510 nM |
| CCSc1nnc(C2CCCN(CC(=O)Nc3cc(C(F)(F)F)ccc3Cl)C2)n1CC (stereo not shown) | Plasmodium falciparum | parasite growth, SYBR Green | 3D7 wild type | 72 h | – | EC50 | 294 ± 69 nM |
| C[C@@H](O)[C@@H]1NC(=O)[C@H](Cc2ccccc2)NC(=O)[C@@H](Cc2ccccc2)NC(=O)[C@H]([C@@H](C)O)NC(=O)[C@@H](CCCCN)NC(=O)[C@H](CC(=O)O)NC1=O | Acanthamoeba castellanii | – | – | trophozoites | – | IC90 | > 16 µg/mL |
| CN(C)CC[C@@H](c1ccc(Br)cc1)c1ccccn1 | Plasmodium falciparum | – | 7G8 | – | – | IC50 | 1580 nM |
| Cn1c(=O)ccc2ccc(F)c(CCNC[C@H]3CN(c4cnc5c(n4)NC(=O)CO5)C(=O)O3)c21 | Clostridioides difficile | – | – | – | – | MIC90 | 0.03 µg/mL (≈ 0.064 µM) |
| O=C(Nc1cccc(CN2CCN(C(=O)c3cccc(Cl)c3)CC2)c1)c1cccs1 | Plasmodium falciparum | parasite growth, SYBR Green | 3D7 wild type | 72 h | – | EC50 | 180 ± 46 nM |
| CC(C)[C@H]1NC(=O)[C@H](CCCNC(=N)N)NC(=O)CNC(=O)[C@@H](Cc2c[nH]c3ccccc23)NC(=O)[C@H](CCCCN)NC(=O)[C@@H](CCCN)NC1=O | Acanthamoeba castellanii | – | – | trophozoites | – | IC90 | > 16 µg/mL |
| CCCn1c(O)nnc1SCC(=O)Nc1cc(C(F)(F)F)ccc1Cl | Plasmodium falciparum | parasite growth | – | – | – | EC50 | 590 ± 140 nM |
| CS(=O)(=O)CCCn1c(Cn2c(=O)n(CC(F)(F)F)c3ccncc32)cc2cc(Cl)ccc21 | respiratory syncytial virus | RT-qPCR | hospitalized infants 1-24 months, nasal swab | oral, 2, 1.5 or 1 mg/kg daily, day 7, low dose by age cohort | baseline: baseline | LS mean viral load change | -4.41 log10 copies/mL |
| CCOC(=O)N1CCC(=C2c3ccc(Cl)cc3CCc3cccnc32)CC1 | Plasmodium falciparum | – | 3D7 | – | – | IC50 | 10000 nM |
| CC(C)[C@@H]1NC(=O)[C@@H](CCCCN)NC(=O)[C@H](CCCN)NC(=O)[C@@H](CC(=O)O)NC(=O)[C@H](C)NC(=O)[C@H](Cc2c[nH]c3ccccc23)NC(=O)[C@@H](Cc2c[nH]c3ccccc23)NC1=O | Naegleria fowleri | – | – | trophozoites | – | IC90 | > 16 µg/mL |
| C=CCc1ccccc1OCC(O)CNC1(C)CCC(C(C)(C)NC(=O)CBr)CC1 (stereo not shown) | Plasmodium falciparum | – | HB3 | – | – | IC50 | 3980 nM |
| CC(C)[C@H]1NC(=O)[C@H](Cc2ccccc2)NC(=O)CNC(=O)[C@@H](Cc2ccccc2)NC(=O)[C@H](CCCCN)NC(=O)[C@@H](CCCNC(=N)N)NC1=O | Acanthamoeba castellanii | – | – | trophozoites | – | IC50 | > 16 µg/mL |

| SMILES | organism | test | system | setting | how to read | measurement | result |
| --- | --- | --- | --- | --- | --- | --- | --- |
| COc1cc(N[C@H](C(=O)c2c[nH]c3ccc(OC(F)(F)F)cc23)c2ccc(Cl)cc2OC)cc(S(C)(=O)=O)c1 | dengue virus 2 | viral infection, luciferase reporter virus | – | 1 nM, 48 h | – | inhibition | 99.9% |
| CC(C)[C@@H]1NC(=O)[C@@H](Cc2ccccc2)NC(=O)[C@H](Cc2ccccc2)NC(=O)[C@@H]([C@H](C)O)NC(=O)[C@H]([C@@H](C)O)NC(=O)[C@@H](CCCNC(=N)N)NC1=O | Naegleria fowleri | – | – | trophozoites | – | IC50 | > 16 µg/mL |
| CC[C@H](C)[C@H](NC(=O)[C@H](C)NC(=O)[C@H](CCCCN)NC(=O)[C@H](CC(C)C)NC(=O)[C@H](C)NC(=O)[C@@H](NC(=O)[C@H](Cc1c[nH]cn1)NC(=O)[C@H](CC(C)C)NC(=O)[C@@H](NC(=O)[C@@H](NC(=O)[C@H](CCCCN)NC(=O)[C@H](C)NC(=O)[C@H](C)NC(=O)[C@H](CO)NC(=O)[C@H](CCCCN)NC(=O)[C@H](Cc1ccccc1)NC(=O)[C@@H](NC(=O)[C@H](CCCCN)NC(=O)[C@H](CC(C)C)NC(=O)[C@H](Cc1ccccc1)NC(=O)[C@H](CO)NC(=O)[C@H](CCCCN)NC(=O)[C@H](Cc1c[nH]c2ccccc12)NC(=O)[C@H](CCCCN)NC(C)=O)[C@@H](C)O)[C@@H](C)O)C(C)C)[C@@H](C)O)C(=O)N[C@@H](CO)C(=O)N[C@@H](CO)C(N)=O | Streptococcus pyogenes | – | ATCC 13813 | 1 strain | – | MIC50 | 16 µg/mL (≈ 5.45 µM) |
| COCc1ccccc1C(=O)NCCOc1cc(C)cc(C)c1 | Plasmodium falciparum | parasite growth | Dd2 | – | – | EC50 | 114 ± 51.9 nM |
| CNC(=O)c1cc(Cl)cc(C)c1NC(=O)c1cc(Br)nn1-c1ncccc1Cl | Spodoptera litura | – | Brassica oleracea field | 25 ppm, 168 h, 5% water-dispersible granule | – | corrected larval mortality | 83.3% |
| COc1cc2c(cc1C(F)(F)F)N(C(=O)Nc1cc(F)cc(-c3cccnc3)c1)CC2 | Plasmodium falciparum | – | D10 | – | – | IC50 | 2000 nM |
| NCCCC[C@@H]1NC(=O)[C@@H](CCCCN)NC(=O)[C@H](CO)NC(=O)[C@H](Cc2c[nH]c3ccccc23)NC(=O)[C@@H](Cc2c[nH]c3ccccc23)NC(=O)[C@H](Cc2ccccc2)NC(=O)[C@@H](CCCCN)NC1=O | Acanthamoeba castellanii | – | – | trophozoites | – | IC90 | > 16 µg/mL |
| COC(=O)c1cccc(C#CCCOCCCCCCNC[C@H](O)c2cc(Cl)c(N)c(Cl)c2)c1 | Plasmodium falciparum | parasite growth, SYBR Green | – | 72 h | baseline: 3D7-E182D over 3D7 | EC50 ratio | 0.9 |
| COCC(=O)O[C@]1(CCN(C)CCCc2nc3ccccc3[nH]2)CCc2cc(F)ccc2[C@@H]1C(C)C | Plasmodium falciparum | – | Dd2 | – | – | IC50 | 1000 nM |
| Cc1cc(NC(=O)c2cc(S(=O)(=O)N3CCCCC3)ccc2C)no1 | Plasmodium falciparum | parasite growth, SYBR Green | 3D7 wild type | 72 h | – | EC50 | 533 ± 160 nM |
| CC[N+](CC)(CC)CCOc1ccc(/C=C/c2ccccc2)cc1 | Plasmodium falciparum | – | HB3 | – | – | IC50 | 794 nM |
| CCc1nc2nc(C)cc(Nc3ccc(F)c(Cl)c3)n2n1 | Plasmodium falciparum | parasite growth, SYBR Green | 3D7 wild type | 72 h | – | EC50 | 514 ± 150 nM |
| CC(C)(C)c1cc(C=C(C#N)C#N)cc(C(C)(C)C)c1O | Plasmodium falciparum | – | W2 | – | – | IC50 | 320 nM |
| Cc1ccc(N2CCc3c(-c4cc5cccnc5nc4C)cc(C)nc32)c(Cl)c1 | Plasmodium falciparum | parasite growth | Dd2 | – | – | EC50 | 381 ± 35 nM |
| NCCCC[C@H]1NC(=O)[C@H](CO)NC(=O)[C@H](Cc2ccccc2)NC(=O)[C@@H](Cc2ccccc2)NC(=O)[C@H](Cc2c[nH]c3ccccc23)NC(=O)[C@@H](CCCN)NC(=O)[C@H](CCCN)NC1=O | Acanthamoeba castellanii | – | – | trophozoites | – | IC90 | > 16 µg/mL |

Some of these lines once more:
| SMILES | organism | test | system | setting | how to read | measurement | result |
| --- | --- | --- | --- | --- | --- | --- | --- |
| C=CCc1ccccc1OCC(O)CNC1(C)CCC(C(C)(C)NC(=O)CBr)CC1 (stereo not shown) | Plasmodium falciparum | – | HB3 | – | – | IC50 | 3980 nM |
| CC(C)[C@H]1NC(=O)[C@H](Cc2ccccc2)NC(=O)CNC(=O)[C@@H](Cc2ccccc2)NC(=O)[C@H](CCCCN)NC(=O)[C@@H](CCCNC(=N)N)NC1=O | Acanthamoeba castellanii | – | – | trophozoites | – | IC50 | > 16 µg/mL |
| COc1cc(N[C@H](C(=O)c2c[nH]c3ccc(OC(F)(F)F)cc23)c2ccc(Cl)cc2OC)cc(S(C)(=O)=O)c1 | dengue virus 2 | viral infection, luciferase reporter virus | – | 1 nM, 48 h | – | inhibition | 99.9% |
